Published values gathered from unrelated publications.
Numbers after ± are the reported error.

SMILES = C=C1[C@H](O)CC(=C/C=C2\CCC[C@]3(C)[C@@H]([C@@H](C)CCCC)CC[C@@H]23)C[C@H]1O; target or system = rat osteosarcoma cells; test = reporter gene, activator, luciferase, refers to: CYP24A1 (24-hydroxylase) promoter; conditions = 50% increase; quantity = EC50; value = 0.003 µM
SMILES = [64Cu+2].c1ccc(CNCc2ccc(CN3CCCN4CCNCCCN(CC4)CC3)cc2)nc1; target or system = CXCR4; system = NOD/SCID mouse, U87 and U87-stb-CXCR4 xenografts, liver; conditions = iv, 90 min, ex vivo, together with: AMD3465 25 mg/kg sc before tracer; quantity = tissue uptake; value = 26.5 ± 3.2 %ID/g
SMILES = Cc1cc(Nc2ccc(NC(=O)c3ccc(NC(=O)c4ccncc4)cc3)cc2)nc(N)n1; target or system = KG-1; test = cell proliferation; conditions = 3 days, 15 % fetal calf serum; quantity = EC50; value = 1.3 µM
SMILES = CC(C)C[C@H](NC(=O)[C@H](CO)NC(=O)[C@H](C)NC(=O)[C@@H]1CCCN1C(=O)[C@H](Cc1c[nH]c2ccccc12)NC(=O)[C@H](CS)NC(=O)[C@H](CCC(=O)O)NC(=O)[C@H](CC(=O)O)NC(=O)[C@H](CC(N)=O)NC(=O)[C@H](CC(C)C)NC(=O)[C@@H](NC(=O)[C@H](CO)NC(=O)CNC(=O)[C@H](CO)NC(=O)CNC(=O)[C@H](C)NC(=O)[C@H](C)NC(=O)CNC(=O)[C@H](CCC(=O)O)NC(=O)[C@H](CO)NC(=O)[C@@H]1CCCN1C(=O)[C@H](CC(C)C)NC(=O)[C@H](Cc1ccccc1)NC(=O)[C@H](CCC(N)=O)NC(=O)[C@H](CCC(=O)O)NC(=O)[C@H](CCCNC(=N)N)NC(=O)[C@H](CO)NC(=O)[C@@H](NC(=O)[C@H](C)NC(=O)[C@H](C)N)[C@@H](C)O)[C@@H](C)O)C(=O)O; target or system = MELOE-1 36-44 specific CD8 T cell clone; test = TNFα production; conditions = cross-presentation, together with: mature dendritic cells; quantity = EC50; value = 0.43 µM
SMILES = COc1cc(CNC(=O)C[C@H](C)CCC=C(C)C)ccc1OCc1cn(-c2ccc(F)cc2)nn1; target or system = SN12C; test = SRB; conditions = 10 µM, 48 h; quantity = growth percent; value = 80.8%
SMILES = C/C=C(/C)C(=O)O[C@H]1C(C)=C[C@]23C(=O)[C@@H](C=C(CO)[C@@H](O)[C@]12O)[C@H]1[C@@H](C[C@H]3C)C1(C)C; target or system = HSC-5; test = cytotoxicity, PrestoBlue; conditions = 30 min, 10% FBS; quantity = EC50; value = 250 µM
SMILES = O=C(O)c1ccc(-n2[nH]cc(-c3cccnc3)c2=O)nc1; target or system = A549 HRE-luciferase reporter; test = HIF reporter gene, activator; quantity = EC50; value = > 20 µM
SMILES = COc1cc(CNC(=O)C[C@H](C)CCC=C(C)C)ccc1OCc1cn(-c2ccc(Cl)cc2Cl)nn1; target or system = NCI-H23; test = SRB; conditions = 10 µM, 48 h; quantity = growth percent; value = 56.6%
SMILES = [64Cu+2].c1cnc(CNCc2ccc(CN3CCCN4CCNCCCN(CC4)CC3)cc2)nc1; target or system = CXCR4; system = NOD/SCID mouse, U87 and U87-stb-CXCR4 xenografts, muscle; conditions = iv, 450 min, ex vivo; quantity = tissue uptake; value = 0.29 ± 0.03 %ID/g
SMILES = O=c1c(-c2cccnc2)c[nH]n1-c1ccc(CO)cn1; target or system = A549 HRE-luciferase reporter; test = HIF reporter gene, activator; quantity = EC50; value = 13.4 µM
SMILES = C(=C/c1ccccc1)/c1ccccc1; target or system = K562; test = apoptosis, flow cytometry, refers to: caspase-3 activity; conditions = 24 h, 50% apoptosis induction; quantity = EC50; value = > 50 µM
SMILES = C=C1[C@H](O)CC(=C/C=C2\CCC[C@]3(C)[C@@H]([C@@H](C)CCCCO)CC[C@@H]23)C[C@H]1O; target or system = rat osteosarcoma cells; test = reporter gene, activator, luciferase, refers to: CYP24A1 (24-hydroxylase) promoter; conditions = 50% increase; quantity = EC50; value = 0.0005 µM
SMILES = FC(F)(F)c1ccnc(-c2cc(C(F)(F)F)ccn2)c1.FC(F)(F)c1ccnc(-c2cc(C(F)(F)F)ccn2)c1.[Cl-].[Cl-].[Ru+2].c1csc(-c2ccc(-c3ccc(-c4nc5c6cccnc6c6ncccc6c5[nH]4)s3)s2)c1; target or system = SK-MEL-28; test = cell viability, resazurin; conditions = dark, mean normoxia and hypoxia; quantity = EC50; value = 197 µM
SMILES = CC(C)c1cnc(-c2cc(Cl)ccc2F)cc1Nc1ccncc1C(=O)NC(CO)CO; target or system = expanded human pan T cells; test = reversal of TGF-β IL-2 suppression; conditions = unbound drug, together with: TGF-β; quantity = EC50; value = 0.012 µM

A few entries again:
SMILES = COc1cc(CNC(=O)C[C@H](C)CCC=C(C)C)ccc1OCc1cn(-c2ccc(Cl)cc2Cl)nn1; target or system = NCI-H23; test = SRB; conditions = 10 µM, 48 h; quantity = growth percent; value = 56.6%
